# Published values gathered from unrelated publications.
# Every numbered part comes from another study and shows a few of its results, in no order.

# Study 1 — method: protein-binding microarray; form: double-stranded DNA, one strand shown; sample: in vitro; tested at: 250 nM; notes: 60-bp whole probe; together with: salmon DNA 0.4 mg/ml; relative to: random background probes; reading: higher = stronger binding; constant ends, left off below: GCCTAGCAC … GTCTTGATTCGCTTGACGCTGCTG
# Target: Interferon regulatory factor 7, full length, phosphomimetic (IRF7, Homo sapiens, UniProt Q92985, residues 1-503, S101K/S471D/S472D/S475D/S476D/S477D/S483D/S484D/S487D)
# Construct (chain): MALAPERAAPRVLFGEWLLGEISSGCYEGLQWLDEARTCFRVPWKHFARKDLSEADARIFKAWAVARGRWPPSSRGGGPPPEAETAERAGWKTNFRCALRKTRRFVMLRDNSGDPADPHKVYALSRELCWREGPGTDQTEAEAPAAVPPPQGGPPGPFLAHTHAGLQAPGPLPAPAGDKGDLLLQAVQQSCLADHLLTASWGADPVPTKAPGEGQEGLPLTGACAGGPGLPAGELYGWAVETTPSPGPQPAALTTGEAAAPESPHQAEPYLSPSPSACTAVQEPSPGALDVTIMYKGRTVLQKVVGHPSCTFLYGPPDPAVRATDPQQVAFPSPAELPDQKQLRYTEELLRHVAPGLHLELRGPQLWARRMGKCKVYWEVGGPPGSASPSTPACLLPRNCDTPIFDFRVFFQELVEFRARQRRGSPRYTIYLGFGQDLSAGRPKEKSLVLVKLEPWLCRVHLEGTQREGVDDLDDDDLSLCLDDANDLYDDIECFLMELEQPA
Sequence,log fluorescence [z-score]
GACGGTCTCGGTACCGGGACGTGCTAG,0.53
TTAGGTTTCCTATTCCTTTAGTGCTAG,3.27
TTAGGTATCCTACTGCTTCAGTGCTAG,-0.0618
TCAATCTTAGATATTAAACTGTGCTAG,0.17
TTAGATATCACTATCGATTAGTGCTAG,0.204
TCAAGTATGACTCTGCCACTGTGCTAG,-0.0746
TAAGGTTTCGACTTTCGGTTAGTGCTA,11.7
GACGATTTCAGTGTCGAGACGTGCTAG,0.0785
GACGGTATGGGGTTTCGGGACGTGCTA,0.952
TTAGGGATCGGTATCGGTTAGTGCTAG,1.94
TTAAAACTGAGTCTCGATTAGTGCTAG,1.49
GACGGTATCAACTATCGGGACGTGCTA,-0.452
GTCGGTTCCGGTTTCGGGACGTGCTAG,8.63
TTAGAACCGAGACTGGATTAGTGCTAG,0.947
TTAGGACTGGGGACTGGGTGAGTGCTA,-0.528
TTAGGTCTCGGTATCGGTTTGTGCTAG,5.16
TTTGGTCTCGGACTGGGTTAGTGCTAG,0.596
TTAGGTTTCGGTTTGGGTTAGTGCTAG,14.3
TCAGTTATAATATTATTACTGTGCTAG,0.54

# Study 2 — method: RNA Bind-n-Seq; form: RNA; sample: in vitro; tested at: 365 nM; relative to: no-protein control; reading: higher = stronger binding
# Target: RNA binding protein fox-1 homolog 2, RRM domain, GST-SBP tag (RBFOX2, Homo sapiens, UniProt O43251-10, residues 100-194)
# Notes: natural RNA segment, single round, ends assumed
# Constant ends, left off below: GGGAGUUCUACAGUCCGACGAUC … UGGAAUUCUCGGGUGCCAA
# Residues (chain): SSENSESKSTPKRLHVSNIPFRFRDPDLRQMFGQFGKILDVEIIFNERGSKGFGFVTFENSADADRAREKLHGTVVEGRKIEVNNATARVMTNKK
Sequence,RBNS enrichment (R)
GUCACUAUUGGGUGCAAGGAUAUCAUUGUUGGCUAGAUUCAUUUUGUAUAAUCAUGUAUCCUCUUGUGUGCUGGUAGAGAUUUUAAUCCUGAUUUUUCCAUAAAACAUGA,0.506
CAAGAACAGAGCAACAGCAACGGAACGAUGCUUAGAAGCAAAGGAAAGGUCACUGAUGAGUCCGCAAGAGGUCUCUUUCCCACUUUUGACUUUCCUGUUGAAGAGAUUAC,0.424
GUCAGGACAUGUCCACCACUGGUCAGAAACUCUUCUUCCCGUGGAACCAAAUGUCCCAGACUCUCUUCAUGCCUCAGCCUUGCAGUGUAGCAUAGGUCUCUCUCUGCACA,0.392
AAUUCUAAAGUUAGAAGUGUUCUUAAGUUGAUAUUUACUCUCUUGGUCUUGGUAGCCCUAUUAUAUCAUUGCAGACACAGUGUUGUGCAUGUGUGUAUUGUAUAUGUGCA,36.2
UCUACUUGCAGGUGGUUUGCUGAGCAGAGAGCUGAGGGACCCUCUUGACUGGGUAGGGGUCUUGUCCAUUUGUGGGGGAGGAUGUGGUGAAGGUGGACCUUCUACAAUCU,0.869
AAUGUCUGAUAAUCUGCAAAACAAAACCUACCAAAUGGAAUCAGGGGCGACAUCUCAGUCGGUCCGGCUGGCAUUGCGUUGCUUGGGCUACCUCCGAUGACAGAAACGUG,0.278
AUAGCAAUAAUACUGUGCUGUGGUGACCUCCGCCCUUGCCUUGUGCAUGUCACACCUCCUUUUCCUUUGCUUCACUUCUGUCAACUGUAGCGACUUUGGUGUGCAGUGAG,5.47
AAAGCCAAGGGUGGUGUCCAUUUCUGGGAAUGGUUAAACACAAAAGGCUGAUAGCUGGUAUCACAUAGUUGGAGUCAGUGCAUAAUUCCAAGUGGCUUUUUUUUUUUUUG,0.551

# Study 3 — method: protein binding microarray; form: double-stranded DNA, one strand shown; sample: in vitro; tested at: not given; relative to: not given; reading: higher = stronger binding
# Target: Histone acetyltransferase KAT6A, both winged helices, GST fusion (KAT6A, Homo sapiens, UniProt Q92794, residues 1-181)
# Notes: 8-mer, flanks averaged, mean of 2 arrays, mostly near background
# Target sequence (chain): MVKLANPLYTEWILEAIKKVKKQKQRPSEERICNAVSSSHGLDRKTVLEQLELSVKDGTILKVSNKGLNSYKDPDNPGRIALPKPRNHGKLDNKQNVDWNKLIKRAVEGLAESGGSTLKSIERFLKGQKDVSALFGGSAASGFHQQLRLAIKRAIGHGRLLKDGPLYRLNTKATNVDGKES
Sequence,E-score
ACCGCAGC,0.132
CTAGACTC,-0.0841
GACCGCTC,0.196
AATACGCT,0.0734
ACGACTAG,-0.0131
CGTTTTAC,0.0441
AGGTAAAT,-0.22
ATAGGGAC,-0.139
CGAATGGA,-0.25
ATATTCTC,-0.187
CGTAAGCA,-0.132
AACACTCC,-0.0422
CTCCGACC,0.0839
CAGGCTAC,-0.195
CTCGCTCA,0.0493
CTCCAGCA,-0.211
ACGCTCAG,0.098
TAGTACGA,0.0144
CGCGCGAA,0.35
CACCGGTC,0.111
ACGACCAG,-0.102
CTCCTTAC,-0.0678
ACTTGGAT,-0.135
CGAAGGGC,0.082
CCTGTCAC,-0.00101

# Study 4 — method: RNA Bind-n-Seq; form: RNA; sample: in vitro; tested at: not given; relative to: input RNA pool; reading: higher = stronger binding
# Target: RING finger protein unkempt homolog, zinc fingers 1-6, GST-SBP tag (UNK, Homo sapiens, UniProt Q9C0B0, residues 30-357)
# Sequence of UniProt Q9C0B0 (30-357, looked up): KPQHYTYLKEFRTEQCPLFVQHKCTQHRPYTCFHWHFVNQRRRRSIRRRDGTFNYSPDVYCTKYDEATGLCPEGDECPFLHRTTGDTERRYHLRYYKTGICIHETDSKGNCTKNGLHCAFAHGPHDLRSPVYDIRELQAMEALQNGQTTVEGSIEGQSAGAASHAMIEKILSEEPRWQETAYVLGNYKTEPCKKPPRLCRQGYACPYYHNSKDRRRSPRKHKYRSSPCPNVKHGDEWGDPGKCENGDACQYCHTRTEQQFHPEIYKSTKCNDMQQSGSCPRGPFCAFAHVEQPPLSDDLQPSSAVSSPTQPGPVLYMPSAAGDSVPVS
# Notes: RNA with constant flanks, human-mouse chimeric sites, ends assumed
# Constant ends, left off below: GGGAGUUCUACAGUCCGACGAUC … CAACAGAGGAUUGAGCAUCA
Sequence,bound/input enrichment [ratio]
GGCCUGGGACCGUCCUGGGCUAGUACAAAUAGCGGCAGUGGAGGCUCGAGAGGAAAGUUGUUAGUGGGAGGCAGUGGUAGAGGCCGUAUGUACGCUCCCUUUACUCGAUAGAUGUGUUCU,0.444
GGUGGGGUGGUCAUUGCCGUUUGAGCUGCUGAUUUUCAUGAGUCGCCUUCAAAACUCUCGUGUAGGGUUGACAAUGUAAGGGGUGGGGGGAUCCAGCUUAUUCUUUUAUUUUCAAGUCCA,0.504
AGAUUCCCCCUCCUGAGACCUCCUCCGAAGUUGGAGUCUCUUACAGAUGGUUCAUCUCCUGUUAGCGUUUUAGUUUGGACCACCCAGCCUUGGACAAUUCCAGCCAACCAGGCAAUUUGC,2.43
AUCAAGUACUUUGGGGACAUCAUUAGUGUGGGACAGAGACUGUUGCAAGGAGCUCGGAUCUUAGGGAUUCCAGUUAUCAUAACGGAACAAUACCCCAAAGGACUUGGCAGCACCGUUCAA,0.189
CCUCUGCCCCGCUCUGCAGCCUGGGGACACUGGGCUGGGACCAGAAUCCAGCUUUCUUUUAAAACUCUAUAUUUUUUUGUAUCCCGUGACAUUUCAUUUUUUUUAAAUAGUGUAUUUUUU,14.2
UGUGCCCCACAAGAUCCUACCUGAGUGUUCAGAUGGGUUGACUCCCUCUCCUUGCCUGAACCCCCCCCCACUGCCCCCCCAUCCCCCAGUGUCGGCUGAGAUGUUGCCUCUGCACGGUUC,2.76
UUCUAGUAUGAUGGUGAUAUUGGCAAUUAUUAUUAUGGACAGGGUCAUCCCAUGAAGCCUCAUAGAAUCCGGAUGACUCAUAACUUGCUGCUAAAUUAUGGUUUAUACCGAAAAAUGGAA,0.411
CUUAAUGUUAAUAUUUUUGAAUAAAUGUAAAACCAUGGUCUGCUUUUGGUACAACACGCAUUAAUAAAAGGUUAAGUUUUGUUUUCCACUGAAGUACGUAAUACUUACUCAGAAAAAAAC,0.434

# A few entries again (study 3):
Sequence,E-score
CAGGCTAC,-0.195
CTCGCTCA,0.0493
CTCCAGCA,-0.211
ACGCTCAG,0.098
TAGTACGA,0.0144
CGCGCGAA,0.35
CACCGGTC,0.111
ACGACCAG,-0.102
CTCCTTAC,-0.0678
